Experimental data gathered from unrelated publications.
Protocols differ between the studies behind these lines. ± gives the spread as reported.

SMILES | organism | test | test system | conditions | IC50
CC(=O)Nc1ccc2ccn(-c3cc(NC4CC4)n4ncc(C#N)c4n3)c2c1 | Murine coronavirus | viral replication | – | – | 40 nM
CN1CCN(C(=O)N[C@@H](Cc2ccccc2)C(=O)N[C@H](/C=C/S(=O)(=O)c2ccccc2)CCc2ccccc2)CC1 | Murine leukemia virus | pseudovirus entry | HEK-293T, amphotropic | – | > 100 nM
COC1=CC(c2ccc[nH]2)=NC1=Cc1[nH]c(Cc2ccc(Cl)cc2)cc1Cc1ccc(Cl)cc1 | Plasmodium falciparum | parasite growth | 7G8, chloroquine-resistant | – | 5.5 nM
O=P(O)(OCc1ccc(-c2ccccc2)cc1)Oc1c2c(c(OP(=O)(O)OCc3ccc(-c4ccccc4)cc3)c3c1C1CC3c3cc4c(cc31)C1CC4c3ccccc31)C1CC2c2cc3c(cc21)C1CC3c2ccccc21 | measles virus | viral infection, flow cytometry | A549, vaccine strain GFP | 2 days, virus pre-incubated 30 min 37 °C | 8100 nM
C1=CC(c2ccc[nH]2)=NC1=CNC1CCCCCC1 | Plasmodium falciparum | parasite growth | Dd2, chloroquine-resistant | – | > 2500 nM
CCC1(O)C([N+](=O)[O-])=NNc2nc(SC)nn21 (centres unmarked) | Enterovirus B | viral replication, inhibitor | Vero, B3 | 48 h | > 194000 nM
COC1=CC(c2ccc[nH]2)=NC1=CNC1CCC1 | Plasmodium falciparum | parasite growth | Dd2, chloroquine-resistant | – | 497 nM
CCC1(O)C([N+](=O)[O-])=NNc2ncnn21 (centres unmarked) | Enterovirus B | viral replication, inhibitor | Vero, B3 | 48 h | > 235000 nM
CCc1ccc(COP(=O)(O)Oc2c3c(c(OP(=O)(O)OCc4ccc(CC)cc4)c4c2C2CC4c4cc5c(cc42)C2CC5c4ccccc42)C2CC3c3cc4c(cc32)C2CC4c3ccccc32)cc1 | measles virus | viral infection, flow cytometry | A549, vaccine strain GFP | 2 days, virus pre-incubated 30 min 37 °C | 7000 nM
COC1=CC(c2ccc[nH]2)=NC1=CNC1CCCCCC1 | Plasmodium falciparum | parasite growth | Dd2, chloroquine-resistant | – | 34 nM
O=P(O)(OCCCc1ccccc1)Oc1c2c(c(OP(=O)(O)OCCCc3ccccc3)c3c1C1CC3c3cc4c(cc31)C1CC4c3ccccc31)C1CC2c2cc3c(cc21)C1CC3c2ccccc21 | measles virus | viral infection, flow cytometry | A549, vaccine strain GFP | 2 days, virus pre-incubated 30 min 37 °C | 1600 nM
CC(C)=CCNCCOC1C2CC3CC(C2)CC1C3 (centres unmarked) | Bacillus subtilis | microbial growth | – | – | > 120 µg/mL
C#CCC(C)OP(=O)(O)Oc1c2c(c(OP(=O)(O)OC(C)CC#C)c3c1C1CC3c3cc4c(cc31)C1CC4c3ccccc31)C1CC2c2cc3c(cc21)C1CC3c2ccccc21 (centres unmarked) | measles virus | viral infection, flow cytometry | A549, vaccine strain GFP | 2 days, virus pre-incubated 30 min 37 °C | 28000 nM
CC(C)C1=CC(=CNC2CCCCCC2)N=C1c1ccc[nH]1 | Plasmodium falciparum | parasite growth | Dd2, chloroquine-resistant | – | 1970 nM
O=P(O)(O)Oc1c2c(c(OP(=O)(O)O)c3c1C1CC3c3cc4c(cc31)C1CC4c3ccccc31)C1CC2c2cc3c(cc21)C1CC3c2ccccc21 | measles virus | viral infection, flow cytometry | A549, vaccine strain GFP | 2 days, virus pre-incubated 30 min 37 °C | 78400 nM
CC(C)C1=CC(=CNC2CCCCCCC2)N=C1c1ccc[nH]1 | Plasmodium falciparum | parasite growth | 7G8, chloroquine-resistant | – | 1480 nM
CC(C)CCOP(=O)(O)Oc1c2c(c(OP(=O)(O)OCCC(C)C)c3c1C1CC3c3cc4c(cc31)C1CC4c3ccccc31)C1CC2c2cc3c(cc21)C1CC3c2ccccc21 | measles virus | viral infection, flow cytometry | A549, vaccine strain GFP | 2 days, virus pre-incubated 30 min 37 °C | 2800 nM
COc1ccc(-c2coc3cc(O)cc(O)c3c2=O)cc1 | Human betaherpesvirus 5 | viral replication, absorbance | human Fibroblast | 72 h | 28000 nM
CC(C)=CCC/C(C)=C/CC/C(C)=C/CNCCOC1C2CC3CC(C2)CC1C3 (centres unmarked) | Bacillus subtilis | microbial growth | – | – | 0.8 µg/mL
CC1CC2OCOC2C(OC2CCC3(C=O)C4CCC5(C)C(C6=CC(=O)OC6)CCC5(O)C4CCC3(O)C2)O1 (centres unmarked) | transmissible gastroenteritis virus | viral replication, immunofluorescence | ST cells | 6 h post-infection, pretreated 1 h | 164 ± 47 nM

A few entries again:
SMILES | organism | test | test system | conditions | IC50
O=P(O)(OCc1ccc(-c2ccccc2)cc1)Oc1c2c(c(OP(=O)(O)OCc3ccc(-c4ccccc4)cc3)c3c1C1CC3c3cc4c(cc31)C1CC4c3ccccc31)C1CC2c2cc3c(cc21)C1CC3c2ccccc21 | measles virus | viral infection, flow cytometry | A549, vaccine strain GFP | 2 days, virus pre-incubated 30 min 37 °C | 8100 nM
CC(C)C1=CC(=CNC2CCCCCC2)N=C1c1ccc[nH]1 | Plasmodium falciparum | parasite growth | Dd2, chloroquine-resistant | – | 1970 nM
